Results gathered from unrelated publications.
Protocols differ between the studies behind these lines.
Organism: Trypanosoma brucei
Effect on: parasite growth

| Compound | test | test system | setting | quantity | value |
| --- | --- | --- | --- | --- | --- |
| O=Cc1ccc(-c2cc3cccc([N+](=O)[O-])c3[nH]c2=O)cc1 | resazurin | – | 74 h, trypomastigote | IC50 | 0.5 µM |
| C=CCCCC[C@@H](C)C(=O)N(C)[C@H](C(=O)N(C)[C@H](C(=O)N[C@H](C(=O)N(C)[C@@H](C)C(=O)N(C)[C@@H](Cc1ccccc1)C(N)=O)C(C)C)C(C)C)C(C)C | ATP luminescence | – | 48 h | IC50 | 1.9 µM |
| N=C(N)c1ccc(-c2ccc(-c3ccc(C(=N)N)s3)o2)cc1 | – | RHODESIENSE STIB900 | – | IC50 | ≤ 0.006 µM |
| C=CCCCCCC(=O)N(C)[C@H](C(=O)N(C)[C@H](C(=O)N(C)[C@H](C(=O)N(C)[C@@H](C)C(=O)N(C)[C@@H](Cc1ccccc1)C(=O)N(C)CCCCCCCCC(=O)NCCNC(=O)CCC1=[N+]2C(=Cc3c(C)cc(C)n3[B-]2(F)F)C=C1)C(C)C)C(C)C)C(C)C | ATP luminescence | – | 48 h | IC50 | 3.1 µM |
| O=C(Nc1nc2ccc(-c3ccc(F)c(F)c3)cc2s1)N1CCC(F)C1 (stereo not shown) | resazurin | – | 48 h | EC50 | > 2 µM |
| COc1cc(/C=C/c2cccc(Oc3ccccc3)c2)oc(=O)c1 | – | RHODESIENSE STIB900 | trypomastigote | IC50 | < 10 µM |
| NCCCC(N)(C(=O)O)C(F)F (stereo not shown) | resazurin | – | trypomastigote | IC50 | 15.8 µM |
| N=C(N)c1ccc(-c2ccc(-c3ccc(C(=N)N)o3)o2)cn1 | – | RHODESIENSE STIB900 | – | IC50 | ≤ 0.006 µM |
| CSc1ccc(OCc2ncc([N+](=O)[O-])n2C)cc1 | resazurin | – | 74 h, trypomastigote | IC50 | 0.4 µM |
| O=c1c(O)c(-c2ccc(O)c(O)c2)oc2cc(O)cc(O)c12 | resazurin | – | trypomastigote | IC50 | 7.8 mg/L |

A few entries again:
| Compound | test | test system | setting | quantity | value |
| --- | --- | --- | --- | --- | --- |
| O=C(Nc1nc2ccc(-c3ccc(F)c(F)c3)cc2s1)N1CCC(F)C1 (stereo not shown) | resazurin | – | 48 h | EC50 | > 2 µM |
